Measurements from different studies.
A part holds a random share of what one study measured. Substitutions count along the parent as printed.

Set 1
Target: TAR DNA-binding protein 43, full length, His tag (TARDBP, Homo sapiens, UniProt Q13148, residues 1-414)
Method: RNA Bind-n-Seq
Form: RNA
Sample: in vitro
Tested at: 20 nM
Notes: 6-mer, flanks averaged, single round
With: 150 mM LiCl
Relative to: input library
Direction: higher = stronger binding
| Sequence | 6-mer enrichment (R) |
| --- | --- |
| AACGGA | 0.871 |
| CUUUAC | 0.939 |
| CUUCGC | 0.846 |
| GCAUCA | 0.839 |
| CGACAU | 0.814 |
| CCAUGA | 0.857 |
| ACAAUC | 0.806 |
| AUCUUU | 1.03 |
| UGUUGU | 1.57 |
| GCUAAA | 0.874 |
| UGUGUC | 1.31 |
| AACAAA | 0.893 |

Set 2
Cell line: yeast with cyclin D1-Cln2 chimera
Observed: cell growth
Action: binder
Method: competitive growth deep sequencing
Form: peptide
Tested at: concentration not given
Notes: peptide tiling library
Direction: direction not given
| Molecule | growth enrichment score |
| --- | --- |
| SNFFDVIKQLFSDEKN | -2.39 |
| DWDTVERQEEEAPSWD | 1.73 |
| TQERKQIHCLSEDELS | 1.5 |
| ASVLSKPIFCFVKD | 1.55 |
| RKLDLEGIGR | 0.618 |
| HPESPPRKRLKSKGSD | 0.441 |
| IFNKPECGRVQRAIFQ | -0.104 |
| MNQELLSVGSKRRRTG | 0.469 |
| TLPYDLACTGGDFVLF | 1.46 |

Set 3
Target: RING finger protein unkempt homolog, zinc fingers 1-6, GST-SBP tag (UNK, Homo sapiens, UniProt Q9C0B0, residues 30-357)
Method: RNA Bind-n-Seq
Form: RNA
Sample: in vitro
Tested at: not given
Notes: RNA with constant flanks, ends assumed
Relative to: input RNA pool
Direction: higher = stronger binding
Target sequence (chain): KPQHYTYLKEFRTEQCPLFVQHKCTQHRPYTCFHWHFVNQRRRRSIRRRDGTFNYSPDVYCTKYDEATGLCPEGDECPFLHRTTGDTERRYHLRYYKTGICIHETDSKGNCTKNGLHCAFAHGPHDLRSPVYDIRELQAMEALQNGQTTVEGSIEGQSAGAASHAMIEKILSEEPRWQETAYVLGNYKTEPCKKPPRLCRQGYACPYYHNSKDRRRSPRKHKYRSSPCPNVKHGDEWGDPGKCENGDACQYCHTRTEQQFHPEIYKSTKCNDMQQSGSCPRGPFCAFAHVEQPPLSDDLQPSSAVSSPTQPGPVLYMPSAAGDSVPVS
| Sequence | bound/input enrichment |
| --- | --- |
| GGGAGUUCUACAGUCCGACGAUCUCAGGGUGGAAGUCCAUGAUUCAGUCUCACCCUCAUUUAGUAGCAGAAGCCUUUCGAGCACCCGCAUCUGCACAGUGUCCACAGUUUGGCAUUCCACGCAAACGGCUAAAACAGUCCUGACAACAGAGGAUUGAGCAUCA | 0.137 ratio |
| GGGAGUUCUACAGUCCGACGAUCACCCAAGUUGGAGUCAUUCGUUGCCCAGUUUGCAGCCAAGAAUGUGCAGAGAGACACAUCACCGAUAACUUUUUUGUGAAGGACACUACUGAGGUUCCCAGCAGUACAGUAGAAAAGUCACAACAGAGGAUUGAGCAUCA | 0.298 ratio |
| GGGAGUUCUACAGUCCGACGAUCUAACUUAUUUUUCAUCAGAGUAUGACUGAAACAUGCUUCUACCAAAUACAAUAUAAAGAAUCCGGCCGUCCUAAUGCCUUUCCUAUAUUAUUUUUUUUUCCUUUUCCACACAAGACAACACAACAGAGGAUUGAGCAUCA | 1.83 ratio |
| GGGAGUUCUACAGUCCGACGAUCGCGGAAUAAUAAGCCGGGAUCUACCAUACCCAUUGACUAACUAUGGAAGAUUAUACCAAAACCGAGAAAAUUGGAGAAGGUACCUAUGGAGUUGUGUAUAAGGGUAGACACAAAACUACACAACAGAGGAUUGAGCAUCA | 0.194 ratio |
| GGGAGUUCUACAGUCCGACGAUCAAUAUACAUGGAACUUUGGUCUUUGGAACAAGUAGUAGUUUGUCUGGCAUAAUGGCAAACUCCGUUUUCCGAAACAGUUUCAAGGUUAAAUAUGAAGCUUUGAAGACCUAUGCAUCCCUGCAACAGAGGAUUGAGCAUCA | 0.0975 ratio |
| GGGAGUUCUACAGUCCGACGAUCAUGACAUUAGUGAAAGCAUCAAAGAGCUUCAGUUUUACCGAAAUAACAUCUUCAAGAAAAAAACCGAUGAAAAGAAGAGGAAAAUUAUAGAAAAUGGGGAAAAUGAGAAGACCGUGAGUUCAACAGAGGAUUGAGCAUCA | 0.953 ratio |
| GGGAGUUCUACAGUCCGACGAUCGGAGAGGCCCAGGCAGCGGCGGCGGCGGCGGCUCUCGGGUUGCGGUGAAGAAUGUCAGCCACCCGCGUGGAUCAGAGACCUAAAGGGCAAGGAAAUAAAGUUUCAGUACAAAACGGUUCGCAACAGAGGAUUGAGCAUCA | 0.183 ratio |

Set 4
Target: ABI1, truncated, D143A, DHFR fusion (Arabidopsis thaliana)
Method: DHFR PCA, deep sequencing
Sample: yeast
Notes: methotrexate growth selection, single substitutions
With: (+)-ABA 1.4 µM
Relative to: wild-type fitted maximum
Direction: higher = stronger binding
Starting sequence: PYL1, truncated, DHFR fusion (Arabidopsis thaliana); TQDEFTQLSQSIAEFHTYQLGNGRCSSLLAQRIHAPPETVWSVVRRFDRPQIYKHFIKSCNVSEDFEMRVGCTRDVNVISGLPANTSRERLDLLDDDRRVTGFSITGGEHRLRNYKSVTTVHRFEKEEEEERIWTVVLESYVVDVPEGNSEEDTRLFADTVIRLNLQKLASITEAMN
| Substitution | relative binding score |
| --- | --- |
| G81H | 1.38% |
| T120N | -2.8% |
| A84W | 87.5% |
| R111N | 3.55% |
| F15W | 58.5% |
| T86M | 35.6% |
| P37D | 7.22% |
| R111S | 1.62% |
| I172R | -10.2% |
| T73M | 59.2% |
| F5Q | 48.6% |
| D95S | -1.75% |
| E67H | 42.5% |
| N77H | 73.2% |
| K54C | -6.64% |
| C25T | 56% |
| T173A | 55.1% |

Some of these lines once more (set 3):
| Sequence | bound/input enrichment |
| --- | --- |
| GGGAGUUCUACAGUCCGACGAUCAAUAUACAUGGAACUUUGGUCUUUGGAACAAGUAGUAGUUUGUCUGGCAUAAUGGCAAACUCCGUUUUCCGAAACAGUUUCAAGGUUAAAUAUGAAGCUUUGAAGACCUAUGCAUCCCUGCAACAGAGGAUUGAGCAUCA | 0.0975 ratio |
| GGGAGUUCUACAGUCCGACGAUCAUGACAUUAGUGAAAGCAUCAAAGAGCUUCAGUUUUACCGAAAUAACAUCUUCAAGAAAAAAACCGAUGAAAAGAAGAGGAAAAUUAUAGAAAAUGGGGAAAAUGAGAAGACCGUGAGUUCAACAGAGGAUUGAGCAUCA | 0.953 ratio |
| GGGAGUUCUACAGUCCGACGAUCGGAGAGGCCCAGGCAGCGGCGGCGGCGGCGGCUCUCGGGUUGCGGUGAAGAAUGUCAGCCACCCGCGUGGAUCAGAGACCUAAAGGGCAAGGAAAUAAAGUUUCAGUACAAAACGGUUCGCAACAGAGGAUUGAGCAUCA | 0.183 ratio |
